# Measured values pooled from the literature.
# Organism: Severe acute respiratory syndrome coronavirus 2
# Effect on: viral replication
Structure (SMILES),mode,method,cell line,time,notes,IC50 [µM]
Oc1ccc(Br)cc1-c1nc2cc(C(F)(F)F)ccc2s1,inhibitor,luciferase,,24 h,replicon,2.4
O=P(O)(OCc1cccc2ccccc12)Oc1c2c(c(OP(=O)(O)OCc3cccc4ccccc34)c3c1C1CC3c3cc4c(cc31)C1CC4c3ccccc31)C1CC2c2cc3c(cc21)C1CC3c2ccccc21,,,Caco-2,,,0.3
C[C@]12C=CC(=O)C=C1CC[C@@H]1[C@@H]2[C@@H](O)C[C@@]2(C)[C@H]1C[C@H]1OC(c3ccc(Cl)cc3)O[C@]12C(=O)CO (some centres unmarked),,,VeroE6/TMPRSS2,,,7.9
C#CCC(C)OP(=O)(O)Oc1c2c(c(OP(=O)(O)OC(C)CC#C)c3c1C1CC3c3cc4c(cc31)C1CC4c3ccccc31)C1CC2c2cc3c(cc21)C1CC3c2ccccc21 (centres unmarked),,,Caco-2,,,97
Cc1ccc(N2CC(N3CCC(C)(O)CC3)C2)cc1C(=O)NC1(c2ccc3c4c(cccc24)CC3)CC1,,,Vero C1008,,,0.208
C=CCCCCOP(=O)(O)Oc1c2c(c(OP(=O)(O)OCCCCC=C)c3c1C1CC3c3cc4c(cc31)C1CC4c3ccccc31)C1CC2c2cc3c(cc21)C1CC3c2ccccc21,,,Caco-2,,,2.6
COc1cccc2c1C(=O)c1c(O)c3c(c(O)c1C2=O)C[C@@](O)(C(=O)CO)C[C@@H]3O[C@H]1C[C@H](N)[C@H](O)[C@H](C)O1,inhibitor,,Calu-3,40 h,,1.17
Oc1ccc(/C=N/C23CC4CC(CC(C4)C2)C3)cc1,,qPCR,Calu-3,,,0.0035
CN(C)CCOc1ccc(/C(=C(/CCCl)c2ccccc2)c2ccccc2)cc1,inhibitor,,A549-ACE2,,,1
CC(=O)NCCCCCCCCCC1O[C@@H]2C[C@H]3[C@@H]4CCC5=CC(=O)C=C[C@]5(C)[C@H]4[C@@H](O)C[C@]3(C)[C@]2(C(=O)CO)O1 (some centres unmarked),inhibitor,,VeroE6/TMPRSS2,24 h,,5.9
CCC(CC)COC(=O)[C@H](C)N[P@](=O)(OC[C@H]1O[C@@](C#N)(c2ccc3c(N)ncnn23)[C@H](O)[C@@H]1O)Oc1ccccc1,,,HeLa-ACE2,48 h,,0.03
Cc1ccc(COP(=O)(O)Oc2c3c(c(OP(=O)(O)OCc4ccc(C)cc4)c4c2C2CC4c4cc5c(cc42)C2CC5c4ccccc42)C2CC3c3cc4c(cc32)C2CC4c3ccccc32)cc1,,,Caco-2,,,1.5
C[C@]12C=CC(=O)C=C1CC[C@@H]1[C@@H]2[C@@H](O)C[C@@]2(C)[C@H]1C[C@@H](O)[C@]2(O)C(=O)CO,inhibitor,,VeroE6/TMPRSS2,24 h,,> 30
CC(=O)c1cccc(-c2nc(Nc3ccccc3)nc(N3CCOCC3)n2)c1,,,Vero,,,2.2
CCCCCCC1O[C@@H]2C[C@H]3[C@@H]4CCC5=CC(=O)C=C[C@]5(C)[C@H]4[C@@H](O)C[C@]3(C)[C@]2(C(=O)CO)O1 (some centres unmarked),inhibitor,,VeroE6/TMPRSS2,24 h,,5.7
CCCCCCCOP(=O)(O)Oc1c2c(c(OP(=O)(O)OCCCCCCC)c3c1C1CC3c3cc4c(cc31)C1CC4c3ccccc31)C1CC2c2cc3c(cc21)C1CC3c2ccccc21,,,Caco-2,,,0.4
Cc1ccc(N2CC3CC(C2)N3)cc1C(=O)NC1(c2ccc3c4c(cccc24)C(=O)N3C)CC1,,,Vero C1008,,,0.0495
C[C@]12C=CC(=O)C=C1CC[C@@H]1[C@@H]2[C@@H](O)C[C@@]2(C)[C@H]1C[C@H]1OC(C3CCCC3)O[C@]12C(=O)CO (some centres unmarked),inhibitor,,VeroE6/TMPRSS2,24 h,,16
Cc1ccc(N2CC(N3CCC(C)(O)CC3)C2)cc1C(=O)NC1(c2ccc3c4c(cccc24)C(=O)N3C)CC1,,,Vero C1008,,,0.0786
CCCCCCOP(=O)(O)Oc1c2c(c(OP(=O)(O)OCCCCCC)c3c1C1CC3c3cc4c(cc31)C1CC4c3ccccc31)C1CC2c2cc3c(cc21)C1CC3c2ccccc21,,,Caco-2,,,1
C[C@]12C=CC(=O)C=C1CC[C@@H]1[C@@H]2[C@@H](O)C[C@@]2(C)[C@H]1C[C@H]1OC(c3cccc(Cl)c3)O[C@]12C(=O)CO (some centres unmarked),inhibitor,,VeroE6/TMPRSS2,24 h,,8.5
C#CCCCCOP(=O)(O)Oc1c2c(c(OP(=O)(O)OCCCCC#C)c3c1C1CC3c3cc4c(cc31)C1CC4c3ccccc31)C1CC2c2cc3c(cc21)C1CC3c2ccccc21,,,Caco-2,,,64.9
O=C1c2c(O)ccc(O)c2C(=O)c2c(NCCNCCO)ccc(NCCNCCO)c21,inhibitor,,Calu-3,40 h,,0.803

# Some of these lines once more:
Structure (SMILES),mode,method,cell line,time,notes,IC50 [µM]
COc1cccc2c1C(=O)c1c(O)c3c(c(O)c1C2=O)C[C@@](O)(C(=O)CO)C[C@@H]3O[C@H]1C[C@H](N)[C@H](O)[C@H](C)O1,inhibitor,,Calu-3,40 h,,1.17
Oc1ccc(/C=N/C23CC4CC(CC(C4)C2)C3)cc1,,qPCR,Calu-3,,,0.0035
